Measurements from different studies.
Each numbered part is a random draw from the data of one study; scales do not carry over between parts.
Sequence of UniProt P10721 (whole entry, unmodified, looked up): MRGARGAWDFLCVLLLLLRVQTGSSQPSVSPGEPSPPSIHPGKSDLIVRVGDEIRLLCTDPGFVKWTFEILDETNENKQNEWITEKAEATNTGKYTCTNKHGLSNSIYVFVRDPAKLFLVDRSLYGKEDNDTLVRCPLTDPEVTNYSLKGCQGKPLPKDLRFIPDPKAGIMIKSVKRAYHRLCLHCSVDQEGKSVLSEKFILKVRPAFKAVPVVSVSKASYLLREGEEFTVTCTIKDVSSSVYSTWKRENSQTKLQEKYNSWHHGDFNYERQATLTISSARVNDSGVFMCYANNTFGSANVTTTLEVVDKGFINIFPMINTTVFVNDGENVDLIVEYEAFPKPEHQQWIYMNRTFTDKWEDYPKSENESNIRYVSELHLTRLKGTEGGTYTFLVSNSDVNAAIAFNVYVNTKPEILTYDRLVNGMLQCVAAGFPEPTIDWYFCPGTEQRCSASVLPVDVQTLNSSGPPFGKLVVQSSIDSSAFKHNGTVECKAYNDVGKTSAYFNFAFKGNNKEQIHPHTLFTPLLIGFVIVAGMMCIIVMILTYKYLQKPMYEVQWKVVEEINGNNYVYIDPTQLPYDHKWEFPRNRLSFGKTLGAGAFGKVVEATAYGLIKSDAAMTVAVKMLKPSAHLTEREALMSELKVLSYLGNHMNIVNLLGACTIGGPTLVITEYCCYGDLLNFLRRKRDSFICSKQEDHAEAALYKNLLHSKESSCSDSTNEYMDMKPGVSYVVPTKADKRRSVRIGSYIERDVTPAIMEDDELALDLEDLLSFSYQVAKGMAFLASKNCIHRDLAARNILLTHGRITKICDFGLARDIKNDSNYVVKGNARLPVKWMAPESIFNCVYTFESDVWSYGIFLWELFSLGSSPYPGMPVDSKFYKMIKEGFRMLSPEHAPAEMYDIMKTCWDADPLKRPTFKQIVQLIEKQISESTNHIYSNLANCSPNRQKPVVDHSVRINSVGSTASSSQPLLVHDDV
Sequence of UniProt Q9UEE5 (whole entry, looked up): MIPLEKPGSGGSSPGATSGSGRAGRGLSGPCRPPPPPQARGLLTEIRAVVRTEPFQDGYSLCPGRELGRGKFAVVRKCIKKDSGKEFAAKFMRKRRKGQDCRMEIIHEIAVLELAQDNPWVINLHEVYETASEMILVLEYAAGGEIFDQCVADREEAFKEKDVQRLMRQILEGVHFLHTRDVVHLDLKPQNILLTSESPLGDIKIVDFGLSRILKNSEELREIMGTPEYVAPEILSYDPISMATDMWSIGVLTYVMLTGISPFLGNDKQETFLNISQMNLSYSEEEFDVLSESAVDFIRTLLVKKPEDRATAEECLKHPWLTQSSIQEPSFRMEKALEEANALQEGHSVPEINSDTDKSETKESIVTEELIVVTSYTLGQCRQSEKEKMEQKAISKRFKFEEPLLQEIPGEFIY
Sequence of UniProt Q86UE8 (whole entry, looked up): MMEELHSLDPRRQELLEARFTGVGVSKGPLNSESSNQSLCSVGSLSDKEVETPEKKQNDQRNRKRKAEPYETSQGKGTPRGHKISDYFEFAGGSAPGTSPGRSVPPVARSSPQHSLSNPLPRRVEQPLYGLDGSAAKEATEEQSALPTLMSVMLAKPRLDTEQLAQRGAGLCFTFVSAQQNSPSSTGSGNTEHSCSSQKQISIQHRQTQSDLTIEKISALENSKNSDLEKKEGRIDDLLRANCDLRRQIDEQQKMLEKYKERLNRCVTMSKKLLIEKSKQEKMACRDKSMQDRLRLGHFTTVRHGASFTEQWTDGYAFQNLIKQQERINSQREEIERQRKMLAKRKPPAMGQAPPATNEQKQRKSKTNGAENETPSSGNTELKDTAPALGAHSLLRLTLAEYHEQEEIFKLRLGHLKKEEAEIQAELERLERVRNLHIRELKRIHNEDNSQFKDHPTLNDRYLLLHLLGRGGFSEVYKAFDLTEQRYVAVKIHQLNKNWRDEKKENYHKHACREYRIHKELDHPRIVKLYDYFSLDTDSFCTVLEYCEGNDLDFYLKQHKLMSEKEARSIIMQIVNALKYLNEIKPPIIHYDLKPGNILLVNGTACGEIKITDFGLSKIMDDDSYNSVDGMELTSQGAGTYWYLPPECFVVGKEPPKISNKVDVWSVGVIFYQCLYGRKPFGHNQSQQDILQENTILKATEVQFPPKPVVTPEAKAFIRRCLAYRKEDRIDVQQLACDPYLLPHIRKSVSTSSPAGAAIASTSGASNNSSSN
Sequence of UniProt P45983 (whole entry, looked up): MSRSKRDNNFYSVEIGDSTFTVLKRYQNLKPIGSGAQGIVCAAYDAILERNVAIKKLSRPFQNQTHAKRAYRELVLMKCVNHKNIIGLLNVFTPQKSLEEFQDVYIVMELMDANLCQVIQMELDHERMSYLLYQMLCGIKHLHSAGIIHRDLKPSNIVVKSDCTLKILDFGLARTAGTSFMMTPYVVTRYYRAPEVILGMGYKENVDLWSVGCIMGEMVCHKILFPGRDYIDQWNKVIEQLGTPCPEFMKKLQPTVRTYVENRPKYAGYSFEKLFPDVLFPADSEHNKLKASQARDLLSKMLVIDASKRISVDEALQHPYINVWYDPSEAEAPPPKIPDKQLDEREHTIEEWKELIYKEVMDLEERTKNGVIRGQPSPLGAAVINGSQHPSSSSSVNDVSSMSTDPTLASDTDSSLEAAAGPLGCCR
Sequence of UniProt Q9P0L2 (whole entry, looked up): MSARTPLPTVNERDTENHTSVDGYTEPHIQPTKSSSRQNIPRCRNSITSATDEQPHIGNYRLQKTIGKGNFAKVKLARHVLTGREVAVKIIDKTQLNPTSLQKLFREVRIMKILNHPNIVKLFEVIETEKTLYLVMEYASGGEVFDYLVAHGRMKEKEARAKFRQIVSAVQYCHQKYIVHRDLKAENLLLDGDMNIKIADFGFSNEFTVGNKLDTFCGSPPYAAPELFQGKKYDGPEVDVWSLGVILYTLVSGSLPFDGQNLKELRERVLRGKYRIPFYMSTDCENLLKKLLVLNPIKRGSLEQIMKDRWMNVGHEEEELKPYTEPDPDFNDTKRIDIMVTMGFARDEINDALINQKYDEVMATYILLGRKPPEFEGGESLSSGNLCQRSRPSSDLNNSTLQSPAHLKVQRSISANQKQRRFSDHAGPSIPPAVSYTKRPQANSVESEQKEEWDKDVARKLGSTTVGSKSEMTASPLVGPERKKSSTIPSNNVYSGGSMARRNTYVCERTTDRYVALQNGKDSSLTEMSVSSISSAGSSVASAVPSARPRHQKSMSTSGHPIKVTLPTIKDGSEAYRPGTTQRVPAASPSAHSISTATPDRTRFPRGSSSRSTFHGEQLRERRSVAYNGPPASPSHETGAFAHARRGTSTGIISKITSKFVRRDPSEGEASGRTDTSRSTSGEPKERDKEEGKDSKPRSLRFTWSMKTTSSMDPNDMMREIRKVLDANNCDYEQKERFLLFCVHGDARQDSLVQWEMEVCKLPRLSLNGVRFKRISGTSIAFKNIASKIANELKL
Sequence of UniProt Q13555 (whole entry, looked up): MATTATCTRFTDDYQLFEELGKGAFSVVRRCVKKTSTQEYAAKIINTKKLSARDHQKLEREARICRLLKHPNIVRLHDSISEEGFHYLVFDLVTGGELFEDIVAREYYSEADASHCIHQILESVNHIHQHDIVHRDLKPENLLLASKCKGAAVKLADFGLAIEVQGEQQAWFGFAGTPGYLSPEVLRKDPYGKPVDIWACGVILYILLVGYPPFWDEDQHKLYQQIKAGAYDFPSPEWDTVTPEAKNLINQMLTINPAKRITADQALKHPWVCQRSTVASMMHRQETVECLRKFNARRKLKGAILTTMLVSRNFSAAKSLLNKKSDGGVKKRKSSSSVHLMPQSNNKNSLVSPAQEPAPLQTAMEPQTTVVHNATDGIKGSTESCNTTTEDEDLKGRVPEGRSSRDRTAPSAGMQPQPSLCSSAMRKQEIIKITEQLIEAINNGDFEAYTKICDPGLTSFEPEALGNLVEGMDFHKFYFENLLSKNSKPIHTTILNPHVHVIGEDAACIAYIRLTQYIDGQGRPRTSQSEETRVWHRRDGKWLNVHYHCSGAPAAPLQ
Sequence of UniProt P22607 (whole entry, looked up): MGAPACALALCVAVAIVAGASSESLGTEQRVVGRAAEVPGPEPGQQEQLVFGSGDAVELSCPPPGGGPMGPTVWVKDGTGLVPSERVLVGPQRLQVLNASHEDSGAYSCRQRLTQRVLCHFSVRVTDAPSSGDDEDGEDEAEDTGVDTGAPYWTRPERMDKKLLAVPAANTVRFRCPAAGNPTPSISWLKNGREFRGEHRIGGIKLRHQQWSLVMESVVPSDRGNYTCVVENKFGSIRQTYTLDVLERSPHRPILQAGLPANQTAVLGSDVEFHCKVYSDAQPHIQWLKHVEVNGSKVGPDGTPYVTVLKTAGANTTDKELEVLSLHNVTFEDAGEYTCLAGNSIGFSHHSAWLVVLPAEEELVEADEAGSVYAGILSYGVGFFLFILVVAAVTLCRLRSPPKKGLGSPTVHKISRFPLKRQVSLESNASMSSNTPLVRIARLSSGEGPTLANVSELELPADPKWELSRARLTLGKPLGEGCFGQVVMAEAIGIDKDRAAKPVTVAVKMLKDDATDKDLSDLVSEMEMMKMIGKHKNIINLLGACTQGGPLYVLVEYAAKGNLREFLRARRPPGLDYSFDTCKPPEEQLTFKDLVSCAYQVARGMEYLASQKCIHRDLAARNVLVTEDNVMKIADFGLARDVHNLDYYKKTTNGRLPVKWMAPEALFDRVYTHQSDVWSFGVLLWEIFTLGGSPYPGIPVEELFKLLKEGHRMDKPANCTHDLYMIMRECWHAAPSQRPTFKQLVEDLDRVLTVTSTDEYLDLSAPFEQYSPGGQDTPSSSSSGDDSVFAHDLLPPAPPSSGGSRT

Sample 1
Method: PRP chromatography estimate
Medium: 1,9-decadiene/PBS
pH: 7.4
| Structure (SMILES) | logD |
| --- | --- |
| CCC[C@H]1NC(=O)CSC[C@@H](C(=O)OCC)N(C)C(=O)[C@H](CC(C)C)NC(=O)[C@@H](C)N(C)C(=O)[C@H](CC(C)C)NC(=O)[C@H](C)N(C)C(=O)[C@@H](C)N(C)C(=O)[C@@H](CC(C)C)NC(=O)CN(C)C1=O | -0.615 |
| CCC[C@H]1NC(=O)CSC[C@@H](C(=O)OCC)N(C)C(=O)[C@H](CC(C)C)NC(=O)[C@H](C)N(C)C(=O)[C@H](CC(C)C)NC(=O)[C@H](C)N(C)C(=O)[C@@H]2CCCN2C(=O)[C@@H](CC(C)C)NC(=O)CN(C)C1=O | -0.501 |
| CCOC(=O)[C@@H]1CSCC(=O)N[C@H](CC)C(=O)N(C)[C@@H](C)C(=O)N[C@H](CC(C)C)C(=O)N2CCC[C@@H]2C(=O)N(CC)CC(=O)N[C@@H](CC(C)C)C(=O)N(C)[C@@H](C)C(=O)N[C@@H](CC(C)C)C(=O)N1C | -0.341 |

Sample 2
SMILES: CN(C(=O)c1ccccc1)c1cc(N(C)c2ccc3c(c2)CCc2ccc(C(=O)NCCN4CCOCC4)cc2C3=O)ccc1F
Read-out: cell-free assay
Method: competition with immobilised ligand
Concentration: 1 µM
| target | remaining binding [%] |
| --- | --- |
| Mast/stem cell growth factor receptor Kit, autoinhibited (KIT, Homo sapiens, UniProt P10721) | 100 |
| TLK2 (Homo sapiens, UniProt Q86UE8) | 87 |
| CAMK2G (Homo sapiens, UniProt Q13555) | 88 |
| MAPK8 (Homo sapiens, UniProt P45983) | 82 |
| CAMK1D (Homo sapiens, UniProt Q8IU85) | 100 |
| TGFBR1 (Homo sapiens, UniProt P36897) | 85 |
| STK32B (Homo sapiens, UniProt Q9NY57) | 79 |
| CDKL3 (Homo sapiens, UniProt Q8IVW4) | 96 |
| CDK18 (Homo sapiens, UniProt Q07002) | 100 |
| KIT (Homo sapiens, UniProt P10721, V559D) | 100 |
| ACVRL1 (Homo sapiens, UniProt P37023) | 96 |
| MAP3K12 (Homo sapiens, UniProt Q12852) | 100 |
| FGFR3 (Homo sapiens, UniProt P22607) | 93 |
| EPHA4 (Homo sapiens, UniProt P54764) | 92 |
| MARK1 (Homo sapiens, UniProt Q9P0L2) | 81 |
| PRKCQ (Homo sapiens, UniProt Q04759) | 90 |
| STK17A (Homo sapiens, UniProt Q9UEE5) | 100 |
| COQ8A (Homo sapiens, UniProt Q8NI60) | 87 |

Sample 3
Target: Cyclic AMP-dependent transcription factor ATF-1, full length (ATF1, Homo sapiens, UniProt P18846, residues 1-271)
Method: protein-binding microarray
Form: hairpin DNA
Medium: in vitro
Concentration: not given
Notes: whole hairpin DNA, median over replicate spots
Relative to: not given
Reading: higher = stronger binding
Target sequence (chain): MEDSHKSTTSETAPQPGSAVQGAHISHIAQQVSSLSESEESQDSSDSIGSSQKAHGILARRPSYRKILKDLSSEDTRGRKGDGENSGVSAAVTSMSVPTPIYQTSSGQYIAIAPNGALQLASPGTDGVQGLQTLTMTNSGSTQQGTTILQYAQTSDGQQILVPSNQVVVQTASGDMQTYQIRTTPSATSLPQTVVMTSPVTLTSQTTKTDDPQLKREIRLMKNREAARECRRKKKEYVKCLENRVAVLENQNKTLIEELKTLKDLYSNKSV
| Oligonucleotide | median fluorescence [a.u.] |
| --- | --- |
| GAGGCCCGCTGACGTCAGCCTCCTGGCTGACGTCAGCGGGCCTCACACTC | 13000 |
| GAGGCCGGATGCGGTCAGCCTCCTGGCTGACCGCATCCGGCCTCACACTC (5mC at 12 32) | 3440 |
| GAGGCCGCGTGACGTCAGCCTCCTGGCTGACGTCACGCGGCCTCACACTC (5mC at 8 36) | 15200 |
| GAGGCCGGCGACGTCGTGCCTCCTGGCACGACGTCGCCGGCCTCACACTC (5mC at 9 15 29 35) | 4760 |
| GAGGCCGACGACGGCGTGCCTCCTGGCACGCCGTCGTCGGCCTCACACTC (5mC at 9 15 29 31 35) | 3850 |
| GAGGCCGGATGCGGTCAGCCTCCTGGCTGACCGCATCCGGCCTCACACTC (5mC at 12) | 3440 |
| GAGGCCGGCTGACGTCGGCCTCCTGGCCGACGTCAGCCGGCCTCACACTC (5mC at 16) | 4930 |
| GAGGCCGCGTGACGTCAGCCTCCTGGCTGACGTCACGCGGCCTCACACTC | 19700 |

Sample 4
Organism: Sarcocystis neurona
Read-out: parasite growth
Concentration: 10 µM
| Structure (SMILES) | inhibition |
| --- | --- |
| CCC(=O)O[C@]1(C(=O)CCl)[C@@H](C)C[C@H]2[C@@H]3CCC4=CC(=O)C=C[C@]4(C)[C@@]3(F)[C@@H](O)C[C@@]21C | 5.5% |
| CCC1=C[C@@H]2CN(C1)Cc1c([nH]c3ccccc13)[C@@](C(=O)OC)(c1cc3c(cc1OC)N(C)[C@H]1[C@@](O)(C(=O)OC)[C@H](OC(C)=O)[C@]4(CC)C=CCN5CC[C@]31[C@@H]54)C2.O=C(O)C(O)C(O)C(=O)O.O=C(O)C(O)C(O)C(=O)O | 11.3% |
| CC(C)(C)NCC(O)c1ccc(O)c(CO)c1.CC(C)(C)NCC(O)c1ccc(O)c(CO)c1.O=S(=O)(O)O (centres unmarked) | -20.4% |

Sample 5
Target: PABPC1L2, full length, GST fusion (mouse, UniProt A0ABA7IW68)
Method: RNAcompete
Form: RNA
Medium: in vitro
Concentration: 20 nM
Notes: 7-mer, probes averaged, single round
Relative to: mean of 7-mers
Reading: higher = stronger binding
Target sequence (chain): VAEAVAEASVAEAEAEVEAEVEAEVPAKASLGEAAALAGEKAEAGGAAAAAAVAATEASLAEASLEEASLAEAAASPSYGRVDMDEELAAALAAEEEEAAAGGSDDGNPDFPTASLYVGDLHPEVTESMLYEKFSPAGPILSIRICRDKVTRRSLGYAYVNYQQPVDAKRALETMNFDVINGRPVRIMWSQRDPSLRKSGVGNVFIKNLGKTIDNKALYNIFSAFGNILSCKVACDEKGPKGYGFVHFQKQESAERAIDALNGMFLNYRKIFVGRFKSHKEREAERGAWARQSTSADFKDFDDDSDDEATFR
| Oligonucleotide | 7-mer Z-score |
| --- | --- |
| UUGCAUU | -0.253 |
| GGGACAC | 0.341 |
| CGUCCGA | -0.378 |
| CCUACGG | -0.179 |
| ACGACGC | -0.295 |
| CCCUCCA | -0.311 |
| CCACGCG | -0.186 |
| GCCAAAA | 3.55 |

Mixed results
| SMILES | species | medium | concentration | time | endpoint | value |
| --- | --- | --- | --- | --- | --- | --- |
| COCCNc1nc2c(c(=O)n(C)c(=O)n2C)n1CCOC | mouse | microsomes or S9 | 2 µM | 0.5 h | remaining compound | 67.5% |

Some of these lines once more (sample 3):
| Oligonucleotide | median fluorescence [a.u.] |
| --- | --- |
| GAGGCCGGCGACGTCGTGCCTCCTGGCACGACGTCGCCGGCCTCACACTC (5mC at 9 15 29 35) | 4760 |
| GAGGCCGACGACGGCGTGCCTCCTGGCACGCCGTCGTCGGCCTCACACTC (5mC at 9 15 29 31 35) | 3850 |
| GAGGCCGGATGCGGTCAGCCTCCTGGCTGACCGCATCCGGCCTCACACTC (5mC at 12) | 3440 |
